Experimental data from different studies.
Protocols differ between the studies behind these lines.

Cc1n[nH]c(C)c1CCOC(=O)c1cccc2c1oc(=O)n2C — half-life (mouse plasma): > 150 min
CCCCNC(=O)NC1CC=C(c2cc3c(Nc4cc5ncsc5cc4F)ncnc3s2)CC1 (stereo not drawn) — half-life (human liver microsomes; 1 µM): > 120 min
Cc1c(-c2ccccc2)nn2c(=O)cc(-c3cccc(-c4nnn[nH]4)c3)[nH]c12 — half-life (human liver microsomes; 1 µM): 180 min
CSc1cc(NC(=O)c2ccccn2)ccc1Cl — half-life (rat liver microsomes): 6.54 min
O=C(O)c1cccc(-c2nc(-c3ccccc3F)c3sccn23)c1 — half-life (mouse liver microsomes; 1 µM): 22.7 min
C#CCCCN1C(=O)C2(CN2[S+]([O-])C(C)(C)C)c2ccccc21 (stereo not drawn) — half-life (glutathione): 59.4 min
O=C(CC1Cc2ccccc2C1)N[C@H](CN1CC[C@@H](F)C1)[C@H](O)c1ccc2c(c1)OCCO2 — half-life (mouse liver microsomes; 1 µM): 1.4 min
COc1ccc2c(c1)CN(C(=O)OC(C(F)(F)F)C(F)(F)F)C2 — half-life (rat liver microsomes; with: NADPH): 6 min
CCOc1ccccc1Nc1nnc(SCC(=O)Nc2cc(F)ccc2F)s1 — half-life (human plasma): > 120 min
COc1ccc(CC(=O)OCc2ccc(-n3cccn3)cc2)cc1F — half-life (PBS): > 300 min
Cc1ccccc1OCCCSCc1nc2ccccc2[nH]1 — half-life (CD-1 mouse liver microsomes 0.5 mg/mL; 10 µM): 6.13 min
CC(=O)N1CC=C(c2cc3c(Nc4cc5ncsc5cc4F)ncnc3s2)CC1 — half-life (human liver microsomes; 1 µM): 116 min
